Measurements of several laboratories.
Every numbered part comes from another study and shows a few of its results, in no order. Values joined by “and” are separate records of one study, mostly repeats; a detail may differ.
Sequence of UniProt P17948 (whole entry, looked up): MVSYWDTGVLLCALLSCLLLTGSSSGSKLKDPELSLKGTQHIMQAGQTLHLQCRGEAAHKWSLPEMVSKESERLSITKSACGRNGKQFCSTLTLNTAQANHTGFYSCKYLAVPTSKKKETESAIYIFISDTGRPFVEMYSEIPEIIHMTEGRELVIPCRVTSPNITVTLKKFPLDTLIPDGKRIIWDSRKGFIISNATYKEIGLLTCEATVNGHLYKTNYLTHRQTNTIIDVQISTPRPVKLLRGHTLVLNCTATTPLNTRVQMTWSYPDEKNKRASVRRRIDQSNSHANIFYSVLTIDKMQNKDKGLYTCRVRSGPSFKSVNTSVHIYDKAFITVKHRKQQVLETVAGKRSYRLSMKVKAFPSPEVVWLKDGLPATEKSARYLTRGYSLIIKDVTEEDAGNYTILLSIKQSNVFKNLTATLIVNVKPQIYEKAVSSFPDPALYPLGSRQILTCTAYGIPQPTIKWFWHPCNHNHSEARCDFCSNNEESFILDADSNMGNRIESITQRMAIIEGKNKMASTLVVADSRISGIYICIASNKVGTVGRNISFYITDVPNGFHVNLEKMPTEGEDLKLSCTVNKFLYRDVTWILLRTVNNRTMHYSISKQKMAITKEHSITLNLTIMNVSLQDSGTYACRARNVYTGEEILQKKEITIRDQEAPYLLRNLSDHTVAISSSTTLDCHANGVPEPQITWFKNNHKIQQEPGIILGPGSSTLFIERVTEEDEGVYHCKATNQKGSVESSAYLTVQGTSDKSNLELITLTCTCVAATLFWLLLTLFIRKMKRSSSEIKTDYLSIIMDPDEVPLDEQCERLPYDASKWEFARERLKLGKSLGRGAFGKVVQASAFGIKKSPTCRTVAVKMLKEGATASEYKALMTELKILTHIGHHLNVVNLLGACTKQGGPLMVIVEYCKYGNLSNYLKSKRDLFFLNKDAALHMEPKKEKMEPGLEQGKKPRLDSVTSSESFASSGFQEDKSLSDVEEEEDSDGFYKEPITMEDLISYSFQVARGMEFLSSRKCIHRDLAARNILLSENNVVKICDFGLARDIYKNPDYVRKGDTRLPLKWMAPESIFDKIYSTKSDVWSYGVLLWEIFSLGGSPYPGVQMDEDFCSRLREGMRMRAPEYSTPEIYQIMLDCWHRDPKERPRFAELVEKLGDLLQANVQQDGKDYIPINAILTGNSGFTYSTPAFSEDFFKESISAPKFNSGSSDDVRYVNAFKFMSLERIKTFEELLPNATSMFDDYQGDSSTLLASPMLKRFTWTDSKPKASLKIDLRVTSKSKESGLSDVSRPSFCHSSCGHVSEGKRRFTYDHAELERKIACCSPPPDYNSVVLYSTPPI
Sequence of UniProt Q9UF33 (whole entry, looked up): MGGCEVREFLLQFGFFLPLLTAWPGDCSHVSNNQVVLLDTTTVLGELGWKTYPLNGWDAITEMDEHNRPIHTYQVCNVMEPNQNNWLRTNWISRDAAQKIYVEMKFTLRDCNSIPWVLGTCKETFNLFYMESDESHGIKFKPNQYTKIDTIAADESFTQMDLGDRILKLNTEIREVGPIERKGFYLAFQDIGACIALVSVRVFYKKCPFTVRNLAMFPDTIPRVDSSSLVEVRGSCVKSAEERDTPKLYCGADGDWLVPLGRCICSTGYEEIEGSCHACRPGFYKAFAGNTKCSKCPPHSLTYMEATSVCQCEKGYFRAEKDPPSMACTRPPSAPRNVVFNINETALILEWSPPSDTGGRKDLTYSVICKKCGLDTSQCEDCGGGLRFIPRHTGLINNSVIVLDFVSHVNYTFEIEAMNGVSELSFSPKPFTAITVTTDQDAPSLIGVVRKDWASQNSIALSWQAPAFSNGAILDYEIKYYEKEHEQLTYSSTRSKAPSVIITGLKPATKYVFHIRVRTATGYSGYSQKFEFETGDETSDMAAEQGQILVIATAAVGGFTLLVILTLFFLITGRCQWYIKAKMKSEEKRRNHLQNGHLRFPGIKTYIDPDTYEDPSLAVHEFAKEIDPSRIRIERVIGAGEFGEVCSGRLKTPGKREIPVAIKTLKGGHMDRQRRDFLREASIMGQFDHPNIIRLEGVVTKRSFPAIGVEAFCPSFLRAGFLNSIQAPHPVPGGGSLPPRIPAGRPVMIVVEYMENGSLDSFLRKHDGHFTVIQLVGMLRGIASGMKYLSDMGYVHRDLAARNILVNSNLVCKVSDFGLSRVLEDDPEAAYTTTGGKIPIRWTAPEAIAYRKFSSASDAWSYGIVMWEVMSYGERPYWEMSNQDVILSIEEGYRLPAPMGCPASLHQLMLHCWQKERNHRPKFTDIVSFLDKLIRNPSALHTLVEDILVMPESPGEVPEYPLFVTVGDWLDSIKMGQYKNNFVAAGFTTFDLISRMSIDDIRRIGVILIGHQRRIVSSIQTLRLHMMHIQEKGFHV
Sequence of UniProt P51684 (whole entry, looked up): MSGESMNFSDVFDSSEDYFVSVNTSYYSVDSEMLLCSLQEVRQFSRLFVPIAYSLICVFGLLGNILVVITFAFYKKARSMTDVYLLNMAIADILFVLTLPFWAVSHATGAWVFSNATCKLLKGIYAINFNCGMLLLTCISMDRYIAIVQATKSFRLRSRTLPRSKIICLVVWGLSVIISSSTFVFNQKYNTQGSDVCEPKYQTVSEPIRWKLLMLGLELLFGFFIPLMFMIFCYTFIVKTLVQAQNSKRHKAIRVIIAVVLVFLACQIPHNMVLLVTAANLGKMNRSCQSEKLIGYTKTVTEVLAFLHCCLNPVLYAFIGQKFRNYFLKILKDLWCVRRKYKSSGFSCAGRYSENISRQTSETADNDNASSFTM
Sequence of UniProt P25116 (whole entry, unmodified, looked up): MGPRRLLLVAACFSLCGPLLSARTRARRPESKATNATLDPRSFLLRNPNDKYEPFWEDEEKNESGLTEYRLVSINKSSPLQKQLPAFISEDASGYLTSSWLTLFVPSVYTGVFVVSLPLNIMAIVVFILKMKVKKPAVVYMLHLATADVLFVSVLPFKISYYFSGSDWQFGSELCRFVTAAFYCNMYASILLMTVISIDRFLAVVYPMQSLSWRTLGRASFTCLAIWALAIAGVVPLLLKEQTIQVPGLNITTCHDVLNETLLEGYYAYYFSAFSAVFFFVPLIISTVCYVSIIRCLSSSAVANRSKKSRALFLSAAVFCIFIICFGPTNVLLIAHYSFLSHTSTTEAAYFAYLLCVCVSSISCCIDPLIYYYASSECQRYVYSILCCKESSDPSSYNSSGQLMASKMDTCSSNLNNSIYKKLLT
Sequence of UniProt P48730 (whole entry, looked up): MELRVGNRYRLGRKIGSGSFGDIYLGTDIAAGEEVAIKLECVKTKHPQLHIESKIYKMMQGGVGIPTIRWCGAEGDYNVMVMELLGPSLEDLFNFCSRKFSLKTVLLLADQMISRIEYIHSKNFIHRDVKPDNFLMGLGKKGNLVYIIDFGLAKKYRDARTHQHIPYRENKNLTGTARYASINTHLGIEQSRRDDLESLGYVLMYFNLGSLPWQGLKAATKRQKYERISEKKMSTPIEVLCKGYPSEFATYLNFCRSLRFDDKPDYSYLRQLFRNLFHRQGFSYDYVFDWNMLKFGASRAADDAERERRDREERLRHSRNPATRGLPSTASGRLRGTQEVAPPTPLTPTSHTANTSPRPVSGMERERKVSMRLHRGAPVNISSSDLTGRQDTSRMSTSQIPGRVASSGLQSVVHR
Sequence of UniProt Q05513 (whole entry, looked up): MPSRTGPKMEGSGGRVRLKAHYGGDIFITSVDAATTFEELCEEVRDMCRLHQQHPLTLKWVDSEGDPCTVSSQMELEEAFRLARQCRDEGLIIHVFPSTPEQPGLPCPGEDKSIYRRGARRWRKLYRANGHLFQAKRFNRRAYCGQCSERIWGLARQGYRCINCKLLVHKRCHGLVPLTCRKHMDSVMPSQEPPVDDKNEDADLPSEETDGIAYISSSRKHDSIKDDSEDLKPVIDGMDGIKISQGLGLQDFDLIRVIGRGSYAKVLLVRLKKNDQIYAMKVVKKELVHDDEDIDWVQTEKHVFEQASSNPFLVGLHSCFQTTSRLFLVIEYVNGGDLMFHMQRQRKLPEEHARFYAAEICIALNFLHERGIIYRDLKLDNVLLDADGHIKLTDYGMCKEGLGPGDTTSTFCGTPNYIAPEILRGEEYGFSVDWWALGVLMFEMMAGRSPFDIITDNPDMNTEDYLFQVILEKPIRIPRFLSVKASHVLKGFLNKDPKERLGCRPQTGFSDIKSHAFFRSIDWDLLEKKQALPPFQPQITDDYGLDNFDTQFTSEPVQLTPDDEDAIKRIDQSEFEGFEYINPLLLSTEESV
Sequence of UniProt P42680 (whole entry, looked up): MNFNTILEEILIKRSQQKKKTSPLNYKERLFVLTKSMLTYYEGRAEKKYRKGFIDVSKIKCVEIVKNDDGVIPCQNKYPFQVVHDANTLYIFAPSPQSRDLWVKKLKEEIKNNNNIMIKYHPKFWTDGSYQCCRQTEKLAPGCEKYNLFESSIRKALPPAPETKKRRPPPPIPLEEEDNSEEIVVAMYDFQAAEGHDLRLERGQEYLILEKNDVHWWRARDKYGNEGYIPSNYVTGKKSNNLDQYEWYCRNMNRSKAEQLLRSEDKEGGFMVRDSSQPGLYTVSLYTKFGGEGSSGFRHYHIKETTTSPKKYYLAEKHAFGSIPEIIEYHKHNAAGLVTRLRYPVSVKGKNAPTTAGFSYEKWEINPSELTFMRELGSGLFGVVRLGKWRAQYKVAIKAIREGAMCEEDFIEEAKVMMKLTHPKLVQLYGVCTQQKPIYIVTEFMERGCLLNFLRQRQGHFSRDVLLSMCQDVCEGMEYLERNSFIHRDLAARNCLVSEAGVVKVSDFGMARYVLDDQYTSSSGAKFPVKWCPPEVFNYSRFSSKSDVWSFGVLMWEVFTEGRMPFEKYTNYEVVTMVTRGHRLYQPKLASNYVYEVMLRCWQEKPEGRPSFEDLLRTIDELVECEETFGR

Study 1 — cell line: mouse MPNST tumor cells; technique: high-content immunofluorescence imaging; refers to: nuclear SOX9; concentration: 10 µM; time: 12 h; notes: mean of 2 replicates; relative to: DMSO control; reading: higher = more nuclear SOX9
SMILES | nuclear SOX9 intensity
CCCCn1c(-c2ccccc2)nc(-c2ccccc2)c1CN(Cc1ccc2c(c1)OCO2)Cc1ccc2c(c1)OCO2 | 155 % of DMSO
CN(C)CCCOc1nn(Cc2ccccc2)c2ccccc12 | 116 % of DMSO
Cc1ccc(NC(=O)Nc2cc(C(F)(F)F)ccc2F)cc1Nc1ccc2c(c1)NC(=O)/C2=C\c1ccc[nH]1 | 232 % of DMSO
Cc1ccc([N+](=O)[O-])cc1S(=O)(=O)n1c(C)nc2ccccc21 | 106 % of DMSO
CN(C)C/C=C(/c1ccc(Br)cc1)c1cccnc1 | 144 % of DMSO
NC(=O)N1c2ccccc2CC(=O)c2ccccc21 | 119 % of DMSO
CCCC(=O)C1CCN(c2ncnc3c2CN(C(=O)c2ccc(-c4ccccc4)cc2)CC3)CC1 | 137 % of DMSO
COc1cc(C)c(Sc2cnc(NC(=O)c3ccc(CNC(C)C(C)(C)C)cc3)s2)cc1C(=O)N1CCN(C(C)=O)CC1 (stereo not shown) | 214 % of DMSO
Cc1c(OCc2cccc(-c3ccc(C(=O)O)cc3)c2)cc2c(c1C)C(=O)C(C1CCCC1)C2 (stereo not shown) | 87 % of DMSO
CC(C(O)c1ccc(O)cc1)N1CCC(Cc2ccccc2)CC1 (stereo not shown) | 144 % of DMSO
O=c1n(CCCN2CCN(c3cccc(Cl)c3)CC2)nc2ccccn12 | 103 % of DMSO and 124 % of DMSO

Study 2 — Structure (SMILES): CC(C)CN(C)c1nc(N)c(C(=O)N=C(N)N)nc1Cl; observed: β-arrestin recruitment; action: agonist; technique: PRESTO-Tango; concentration: 10 µM; relative to: untreated
target | fold over basal
PTGER3 (Homo sapiens, UniProt P43115) | 0.99
Adhesion G protein-coupled receptor F4 (ADGRF4, Homo sapiens, UniProt Q8IZF3) | 0.9
GPR65 (Homo sapiens, UniProt Q8IYL9) | 0.67
TAAR1 (Homo sapiens, UniProt Q96RJ0) | 0.67 fold
F2R (Homo sapiens, UniProt P25116) | 0.99
PTGFR (Homo sapiens, UniProt P43088) | 0.93
Probable G-protein coupled receptor 21 (GPR21, Homo sapiens, UniProt Q99679) | 1.13
Oxytocin receptor (OXTR, Homo sapiens, UniProt P30559) | 0.79
CCR6 (Homo sapiens, UniProt P51684) | 0.99

Study 3 — technique: competition with immobilised ligand; concentration: 1 µM
Compound: CO[C@@H](C)c1c(Nc2ccc([C@H](N(C)C(=O)C3CCS(=O)(=O)CC3)C(F)(F)F)cc2)cnc2cc(Cl)nn12
target | assay | remaining binding [%]
PAK5 (Homo sapiens, UniProt Q9P286) | cell-free assay | 100
RIOK2 (Homo sapiens, UniProt Q9BVS4) | cell-free assay | 90
FLT1 (Homo sapiens, UniProt P17948) | cell-free assay | 82
Myosin-IIIb (MYO3B, Homo sapiens, UniProt Q8WXR4) | binding | 82
HASPIN (Homo sapiens, UniProt Q8TF76) | cell-free assay | 100
GRK4 (Homo sapiens, UniProt P32298) | cell-free assay | 85
ACVR2B (Homo sapiens, UniProt Q13705) | cell-free assay | 66
PTK2 (Homo sapiens, UniProt Q05397) | cell-free assay | 85
MAP4K1 (Homo sapiens, UniProt Q92918) | cell-free assay | 100
MERTK (Homo sapiens, UniProt Q12866) | cell-free assay | 87
MAP3K19 (Homo sapiens, UniProt Q56UN5) | cell-free assay | 91
MAP3K15 (Homo sapiens, UniProt Q6ZN16) | cell-free assay | 100
NEK10 (Homo sapiens, UniProt Q6ZWH5) | cell-free assay | 100
BMP2K (Homo sapiens, UniProt Q9NSY1) | cell-free assay | 89

Study 4 — SMILES: CCOc1nc(NC(=O)Cc2cc(OC)ccc2OC)cc(N)c1C#N; observed: enzyme activity; action: inhibitor; concentration: 0.5 µM; relative to: control
target | remaining activity [%]
CSNK1D (Homo sapiens, UniProt P48730) | 103
SGK2 (Homo sapiens, UniProt Q9HBY8) | 102
CLK1 (Homo sapiens, UniProt P49759) | 98.1
MAP3K20 (Homo sapiens, UniProt Q9NYL2) | 90.4
IGF1R (Homo sapiens, UniProt P08069) | 105
Cyclin-dependent kinase 2, with cyclin E (CDK2, Homo sapiens, UniProt P24941) | 88.9
CSNK1E (Homo sapiens, UniProt P49674) | 101
PRKCQ (Homo sapiens, UniProt Q04759) | 111
CAMKK1 (Homo sapiens, UniProt Q8N5S9) | 104
PRKCZ (Homo sapiens, UniProt Q05513) | 104
PAK1 (Homo sapiens, UniProt Q13153) | 102
JAK1 (Homo sapiens, UniProt P23458) | 110
EPHA2 (Homo sapiens, UniProt P29317) | 103
CLK2 (Homo sapiens, UniProt P49760) | 96.1
TEC (Homo sapiens, UniProt P42680) | 99.2
SIK2 (Homo sapiens, UniProt Q9H0K1) | 97.9
RPS6KA3 (Homo sapiens, UniProt P51812) | 95.6
PAK6 (Homo sapiens, UniProt Q9NQU5) | 102
EPHA6 (Homo sapiens, UniProt Q9UF33) | 89.5
FLT1 (Homo sapiens, UniProt P17948) | 85.5
CAMK1 (Homo sapiens, UniProt Q14012) | 103
